# Measured values collected from several papers.
# Each line is one published result; not all experiments were run side by side. ± marks the error that the study gave.
SMILES,assay,test system,conditions,scale,measurement,result
O=C(O)CCCc1ccc(N(CCCl)CCCl)cc1,mitochondrial swelling,BALB/cByJ female mouse liver mitochondria,"30 min, with: succinate + rotenone",baseline: CaCl2 maximal swelling,EC20,> 200 µM
CC(C)Nc1nc(Cl)nc(NC(C)C)n1,LC-MS/MS,herbicide solution,"2 h, 4 °C, with: 254 nm UV exposure",,remaining amount,40.4 ± 6.85%
CC[C@H](C)[C@H](NC(=O)[C@H](CCCCN)NC(=O)[C@H](CCCCN)NC(=O)[C@H](CC(C)C)NC(=O)[C@H](Cc1c[nH]c2ccccc12)NC(=O)[C@H](Cc1c[nH]c2ccccc12)NC(=O)[C@@H](N)Cc1c[nH]c2ccccc12)C(=O)N[C@@H](Cc1c[nH]c2ccccc12)C(=O)O,haemolysis,human erythrocytes,"1 h, 50% haemolysis",,LC50,40 µM
CN[C@@](C)(C[18F])C(=O)O,,"SCID mouse U87 xenograft, bone","60 min, post injection",,tissue uptake,4 ± 1 %ID/g
[123I]c1cncc(OC[C@@H]2CCN2)c1,SPECT,"human, thalamus","intravenous bolus, 2.1 mCi",baseline: plasma,tissue/plasma ratio,23.4
CC[C@H](C)[C@H](NC(=O)[C@@H](N)CCCNC(=N)N)C(=O)N[C@H](C(=O)N1CCC[C@H]1C(=O)N[C@@H](C)C(N)=O)C(C)C,,"human, plasma","intravenous, 8 mg/kg, single dose, healthy volunteers",,AUC(0-t),2420 ng·h/mL
COc1cc(/C2=C/CCCCc3c2ccc(OC)c3OP(=O)([O-])[O-])cc(OC)c1OC.[Na+].[Na+],,"SCID mice, non-tumour-bearing","120 mg/kg, dose escalation 60 to 150 mg/kg",,tolerability,not toxic
CSc1nc2cc(Cl)c(Oc3cccc(Cl)c3Cl)cc2[nH]1,,human liver mitochondrial preparation,"1 µM, 30 min, 0.5 mg/mL protein",,percent metabolized,0%
COc1ccc(C[C@@H]2NC(=O)[C@H]([C@@H](C)O)NC(=O)[C@@H]3[C@@H]4CCN3C(=O)[C@@H]3Cc5cn(c6ccc(F)cc56)CCCCCCN(Cc5ccc(cc5)CCNC(=O)[C@]5(C)CCCN5C2=O)C(=O)CCC(=O)N[C@@H](C)C(=O)N[C@H](CNC(=O)CCCCC[N+](C)(C)C)C(=O)N[C@@H](Cc2cccc(c2)CNC(=O)CO4)C(=O)N3)cc1,,"fasted healthy humans, plasma","oral, 10 mg single dose, with 1800 mg Labrasol, geometric mean",,Vz/F,1270 L
O=c1[nH]c(Cc2ccccn2)nc2c1cnn2C1CCOCC1,,"healthy men, extensive metabolizers, plasma","oral, 25 mg single dose, tablet, geometric mean",,Cmax,300 nM

# For quick reference, copied from above:
SMILES,assay,test system,conditions,scale,measurement,result
CSc1nc2cc(Cl)c(Oc3cccc(Cl)c3Cl)cc2[nH]1,,human liver mitochondrial preparation,"1 µM, 30 min, 0.5 mg/mL protein",,percent metabolized,0%
COc1ccc(C[C@@H]2NC(=O)[C@H]([C@@H](C)O)NC(=O)[C@@H]3[C@@H]4CCN3C(=O)[C@@H]3Cc5cn(c6ccc(F)cc56)CCCCCCN(Cc5ccc(cc5)CCNC(=O)[C@]5(C)CCCN5C2=O)C(=O)CCC(=O)N[C@@H](C)C(=O)N[C@H](CNC(=O)CCCCC[N+](C)(C)C)C(=O)N[C@@H](Cc2cccc(c2)CNC(=O)CO4)C(=O)N3)cc1,,"fasted healthy humans, plasma","oral, 10 mg single dose, with 1800 mg Labrasol, geometric mean",,Vz/F,1270 L
